Published values of several laboratories.
Compare with care: the assays were run in different laboratories. “And” joins repeats or separate records; there may be more than shown. Numbers after ± are the reported error.

COc1c(C)c(OS(=O)(=O)c2ccc3ccccc3c2)c(C)c(O)c1C(=O)/C=C/c1ccccc1  selectivity index (SH-SY5Y; SRB; relative to: normal over SH-SY5Y IC50): 1.86
CN(C)C(=O)c1cncc(-c2cnc3[nH]cc(-c4ccccc4C(F)(F)F)c3c2)c1  GI50 (Ba/F3 BCR-ABL wild type; cell proliferation; 72 h): 0.43 ± 0.0719 µM
Cc1nn(-c2nc3c(F)cc(F)cc3s2)c(O)c1C(c1ccc(C(F)(F)F)cc1)c1c(C)nn(-c2nc3c(F)cc(F)cc3s2)c1O  inhibition (THP1-Dual; IFN luciferase reporter; 0.625 µM, added: HT-DNA): -12.7% and -0.029% and -2.54% and -10.7% and -3.12% and 1.45%
Cn1cc(Nc2nccc(-c3ccc4c(c3)CN(C3COC3)CC[C@H]4NC(=O)c3cn(C(C)(C)C)nn3)n2)cn1  number of upregulated genes (human B cells; 100 nM, 64 h, non-stimulation-regulated genes, added: CD40L, anti-IgM, IL-4): 44
O=C(C[C@@H](C(F)F)n1ccc(F)n1)N1CCC(O)(Cn2cnc3c(cnn3-c3ccc(F)cc3)c2=O)CC1  viability (CHP-212 USP7 V517F knock-in clone; SRB; 0.02744 µM): 95.2%
Cn1cc(-c2[nH]c3cc(NC(=O)[C@H](N)C4CCCCC4)cc4c3c2C=NNC4=O)cn1  cell growth (SNU-1040; 0.33 µM, 72 h, 100% DMSO; relative to: vehicle): 97.5%
COc1cc(/C=C/C(=O)N2CCC=CC2=O)cc(OC)c1OC  mRNA expression (MDA-MB-468; qRT-PCR, measured: Caspase6; 30 µM, 6 h; relative to: time zero): 81.6 ± 11.7%
O=c1ccn([C@@H]2O[C@H](CO)[C@@H](O)[C@H]2O)c(=O)[nH]1  T cell proliferation (activated human T cells; human; 10 µM): 98.2% and 97.1% and 107% and 106% and 101%
O=c1[nH]nc(OCCCc2ccc(Cl)cc2)c(NCc2cccnc2)c1Br  normalized enrichment score (HEK-293T; RNA-seq GSEA, measured: HALLMARK_MYC_TARGETS_V2; concentration not given; direction not given): -1.87
C[C@H]1[C@@H](O)O[C@@H]2O[C@@]3(C)CC[C@H]4[C@H](C)CC[C@@H]1[C@@]24OO3  late apoptotic cells (KCL-22; annexin V/PI flow cytometry, measured: annexin V+/PI+; 3.2 µM, 24 h): 0.9%
CC(C)Cn1cnc2c(N)nc3ccccc3c21  IL-8 level (THP-1-derived macrophages; induction, ELISA; 10 µg/mL, 24 h; relative to: untreated): 21 fold
Cc1ccc(CNC(=O)Cn2cc(CSc3nc4ccccc4[nH]3)nn2)cc1  cytotoxicity (HEK293; MTT; 15.6 ppm): 71.6%
CCN1CCN(Cc2ccc(C(=O)Nc3ccc(C)c(Oc4ccc5c(c4)CC(=O)N5)c3)cc2C(F)(F)F)CC1  cell growth (SNU-1040; 1 µM, 3 days; relative to: vehicle, 100% DMSO): 95%
CCn1cc(-c2cc(Cn3ccnc3)cc3c2CCN([C@H](c2cc(OC)ccn2)C2CC2)C3=O)c(C(F)(F)F)n1  EC50 (BICR16; cell growth; 120 h): 8.08 µM
C=CC[C@@H]1c2ccc(OC)c(OC)c2CN2CCc3cc4c(cc3[C@H]12)OCO4  normalised current (HEK293 transfected; ATP-evoked current, whole-cell patch clamp; 30 µM, mutant F103W): 0.778 and 0.989 and 0.775
C[C@H](Nc1ccc2c(c1)OCCn1cc(N3C(=O)OC[C@H]3C(F)F)nc1-2)C(N)=O  Hill coefficient (SNU-1076; cell growth, CellTiter-Glo; 120 h): 0.522
CCCCN1C[C@H](O)[C@@H](O)[C@@H](O)[C@H]1CO  IC50 (sample H patient fibroblasts; Gb3 level lowering, LC-MS/MS, measured: Gb3 d18:1/18:0; 216 h): 14.7 µM
C=Cc1c2[n-]c(c1C)/C=c1\[n-]/c(c(C)c1C=C)=C\c1[n-]c(c(CCC(=O)O)c1C)/C=c1\[n-]c(c(C)c1CCC(=O)O)=C2.[Sn+4]  fold change (SH-SY5Y; RNA-seq, measured: HSPB7 mRNA; 5 µM, 5 h; relative to: untreated cells): 1.53
CN(Cc1cccnc1)C(=O)c1ccc(C2CCCCC2)cc1  hepatic clearance (hepatocyte stability; cryopreserved human hepatocytes; 1 µM): 18 mL/min/kg
Nc1ncnc2nc(-c3ccc(N4CCOCC4)nc3)cc(-c3cccc(Br)c3)c12  T cell proliferation (activated human T cells; human; 316 pM): 0% and 0.2% and 2.2%
O=C(NCCN1CCCC1=O)c1ccc(C2CCCCC2)cc1  hepatic clearance (hepatocyte stability; cryopreserved mouse hepatocytes; 1 µM): 63 mL/min/kg
CC(=O)Nc1cccc(-n2c(=O)n(C3CC3)c(=O)c3c(Nc4ccc(I)cc4F)n(C)c(=O)c(C)c32)c1  fractional effect (LoVo (KRAS G13D); cell viability, resazurin; 50.00 nM, 72 h; relative to: DMSO): 0.677 and 0.633
COc1cnc2cccc(N3CCc4c(cc(Cn5ccnc5C)cc4-c4cn(C)nc4C(F)(F)F)C3=O)c2c1  EC50 (DLD-1; cell growth, inhibitor; 120 h): > 30 µM
C=CCOc1c(C)c(O)c(C(=O)/C=C/c2ccccc2)c(OC)c1C  selectivity index (SH-SY5Y; SRB; relative to: normal over SH-SY5Y IC50): 1.12
Nc1ncnc2c1ncn2[C@@H]1O[C@H](CO)[C@@H](O)[C@H]1O  log2 fold change (activated human T cells; measured: orotate; 10 µM; relative to: DMSO): 7.6 and 8.5 and 9.1
CCCCc1oc2ccc(NS(C)(=O)=O)cc2c1C(=O)c1ccc(OCCCN(CCCC)CCCC)cc1  fold change (human embryonic stem cell aggregates; mRNA level, microarray, measured: DLL3; 0.5 µM, 120 h; relative to: untreated, down-regulated): 1.9 fold
CCCCCCCCCCCCCCCCCCOc1ccccc1CC(=O)OCC[N+]1(C)CCCCC1  mean growth inhibition (NSCLC panel (nine cell lines); 10 µM): 55.1%
CC(C)NCC(O)c1ccc(O)c(O)c1 (stereo not shown)  sarcomere length (mouse ventricular cardiomyocytes; dose not given, 0.363 s): 1.8 µm
O=C1[C@H]2CCCN2[C@H](c2cccc3c2OCO3)N1c1ccc(Cl)c(Cl)c1 (racemic)  mutant huntingtin aggregates per cell (PC-12; 10 µM): no effect
CCn1cc(-c2cc(Cn3ccoc3=N)cc3c2CCN([C@@H](C)c2cc(OC)ccn2)C3=O)c(C(F)(F)F)n1  EC50 (HLF; cell growth, inhibitor; 120 h): 0.367 µM
COc1cccc2c1C(=O)c1c(O)c3c(c(O)c1C2=O)C[C@@](O)(C(=O)CO)C[C@@H]3O[C@H]1C[C@H](N)[C@H](O)[C@H](C)O1  Emax (E0771; cytotoxicity, WST-1; 72 h, highest tested concentration): 95.2%
FC(F)(F)C1=C/C(=C/CCCCCCOCc2ccccc2)c2cc3c(cc21)OCO3  Nrf2 stabilization (MM1.S bortezomib-resistant; Western blot; 0.5 µM, 8 h): no effect
CCCCCCCCCCCCCCCCCCOc1ccc(CC(=O)OCC[N+]2(C)CCCC2)cc1  mean growth inhibition (NSCLC panel (nine cell lines); 10 µM): 4.11%
Clc1nc(NCc2ccco2)c2[nH]cnc2n1  share of splicing events affected (iPSC-derived cardiomyocytes, GLA mutant; RNA-seq; FDR below 0.05): 0.23%
COc1cc(C(=O)c2nc(-c3cccc4[nH]ccc34)c[nH]2)cc2c1OCO2  resistance index (PC-3/TxR paclitaxel-resistant; relative to: IC50 PC-3/TxR over IC50 PC-3): 0.4
Cn1cc(-c2ccc(-c3cncc(Cl)c3N3CCC4(CCNC4=O)CC3)cc2)cn1  log2 fold change (COLO 205; gene expression, microarray, measured: CORO1A mRNA; concentration not given, 2 h; relative to: untreated cells): -2.57
Nc1ccn([C@@H]2O[C@H](CO)[C@@H](O)[C@H]2O)c(=O)n1  T cell proliferation (activated human T cells; concentration not given, added: adenosine; relative to: DMSO): 22.7% and 45.8% and 54.3% and 24.9% and 32.4%
COc1c(C)c(OC(=O)c2ccccc2)c(C)c(O)c1C(=O)/C=C/c1ccccc1  selectivity index (SH-SY5Y; SRB; relative to: normal over SH-SY5Y IC50): > 2.47
Cc1nc(Nc2ncc(C(=O)Nc3c(C)cccc3Cl)s2)cc(N2CC[C@H](O)C2)n1  inhibition (A3/KAW; cell proliferation, CellTiter-Glo; 10 µM, 72 h): 74%
Nc1cccc2c1C(=O)N(C1CCC(=O)NC1=O)C2=O (stereo not shown)  viability (MM1.S resistant to compound; XTT; 1.6 µM): 17% and 23% and 28%
CCCCCN1C[C@H](O)[C@@H](O)[C@H](O)[C@@H]1CO  IC50 (Sandhoff disease patient fibroblasts; glycosphingolipid lowering, LC-MS/MS, measured: GM2 and its quantifiable isoforms): 0.44 µM
O=C(/C=C/C=C/C=C/C1CCCCC1)NC1=C[C@@](O)(/C=C/C=C/C=C/C(=O)NC2=C(O)CCC2=O)[C@@H]2O[C@@H]2C1=O  GI50 (SW1990; cell growth, CellTiter-Glo; 78 h): 15.1 µM
COc1ccc(-n2nc(C(C)=O)s/c2=N\N=C(/C)c2ccc(NC(=O)c3ccc(Cl)cc3)cc2)cc1  viability (HepG2; 0.625 µM): 12.4%
Cc1cc(Nc2ncc(Cl)c(Nc3ccccc3S(=O)(=O)C(C)C)n2)c(OC(C)C)cc1C1CCNCC1  log2 fold change (CLB-BAR; phosphoproteomics LC-MS/MS, measured: PPP1R12A phosphorylation; 200 nM, 60 min; relative to: untreated): -2.97
COc1ccc(-n2nc(C(C)=O)s/c2=N\N=C(/C)c2ccc(NC(=O)c3ccc(C)cc3)cc2)cc1  toxicity (HepG2; 0.625 µM): 82.2%
CCCCCCCCCCCCCCCCCCOc1ccc(CC(=O)OCCC[N+](C)(C)C)cc1  mean growth inhibition (NSCLC panel (nine cell lines); 10 µM): 17.3%

For quick reference, copied from above:
C=CC[C@@H]1c2ccc(OC)c(OC)c2CN2CCc3cc4c(cc3[C@H]12)OCO4  normalised current (HEK293 transfected; ATP-evoked current, whole-cell patch clamp; 30 µM, mutant F103W): 0.778 and 0.989 and 0.775
Cn1cc(Nc2nccc(-c3ccc4c(c3)CN(C3COC3)CC[C@H]4NC(=O)c3cn(C(C)(C)C)nn3)n2)cn1  number of upregulated genes (human B cells; 100 nM, 64 h, non-stimulation-regulated genes, added: CD40L, anti-IgM, IL-4): 44
Nc1ncnc2nc(-c3ccc(N4CCOCC4)nc3)cc(-c3cccc(Br)c3)c12  T cell proliferation (activated human T cells; human; 316 pM): 0% and 0.2% and 2.2%
CCCCCCCCCCCCCCCCCCOc1ccccc1CC(=O)OCC[N+]1(C)CCCCC1  mean growth inhibition (NSCLC panel (nine cell lines); 10 µM): 55.1%
